Measurements collected from several papers.
Protocols differ between the studies behind these lines. “And” joins repeats or separate records; there may be more than shown. Numbers after ± are the reported error.

`O=C(NCC1OC2CCC=CCCC2O1)c1ccc([18F])nc1` (stereo not shown) gave a tissue uptake of 2.1 ± 1.4 %ID/g (healthy female BALB/c nude mice, skin; intravenous, 7.4 MBq per mouse, 10 min).
With `CC(C)C[C@H](NC(=O)[C@@H](CCCCNC(=O)[C@@H](Cc1ccccc1)NC(=O)CCCCCCCNC(=O)CN1CCN(CC(=O)O)CCN(CC(=O)O)CCN(CC(=O)O)CC1)NC(=O)[C@H](Cc1ccc(O)cc1)NC(=O)[C@H](CO)NC(=O)[C@H](Cc1c[nH]c2ccccc12)NC(=O)[C@H](Cc1c[nH]cn1)NC(=O)[C@@H]1CCC(=O)N1)C(=O)N[C@@H](CCCNC(=N)N)C(=O)N1CCC[C@H]1C(=O)NCC(N)=O` [indium-111 labelled] the tissue uptake was 0.87 ± 0.18 %ID (male athymic nude mice, DU-145 prostate cancer xenograft, intestines; intravenous, 0.037 MBq, 1 h).
The tissue uptake of `CCCC[C@H](NC(=O)CNC(=O)CNC(=O)[C@H](CCCCNC(=O)[C@H](CC(=O)O)NC(=O)C(C)c1ccc(CC(C)C)cc1)NC(=O)CN1CCN(CC(=O)O)CCN(CC(=O)O)CCN(CC(=O)O)CC1)C(=O)N[C@H]1CC(=O)NCCCC[C@@H](C(N)=O)NC(=O)[C@H](Cc2c[nH]c3ccccc23)NC(=O)[C@H](CCCNC(=N)N)NC(=O)[C@@H](Cc2ccccc2)NC(=O)[C@H](Cc2c[nH]cn2)NC1=O` (stereo partly shown) [lutetium-177 labelled] is reported as 0.27 ± 0.09 %ID/g (C57 mice, tumour-bearing, heart; intravenous, 0.037 MBq, 4 h).
The tissue uptake of `N#C[C@@H]1CCCN1C(=O)CNC(=O)c1ccnc2ccc(OCCCN3CCN(C(=O)CCc4ccc(O)c(CN5CCN6CC(=O)[O][Al-]([18F])([O]C(=O)C5)[O]c5ccc(CCC(=O)N7CCN(CCCOc8ccc9nccc(C(=O)NCC(=O)N%10CCC[C@H]%10C#N)c9c8)CC7)cc5C6)c4)CC3)cc12` (stereo partly shown) is reported as 1.48 ± 0.26 %ID/g (BALB/c nude mice, U-87 MG xenograft, heart; 2 h).
For `CCCC[C@H](NC(=O)CNC(=O)CNC(=O)[C@H](CCCCNC(=O)[C@H](CCN)NC(=O)C(C)c1ccc(CC(C)C)cc1)NC(=O)CN1CCN(CC(=O)O)CCN(CC(=O)O)CCN(CC(=O)O)CC1)C(=O)N[C@H]1CC(=O)NCCCC[C@@H](C(N)=O)NC(=O)[C@H](Cc2c[nH]c3ccccc23)NC(=O)[C@H](CCCNC(=N)N)NC(=O)[C@@H](Cc2ccccc2)NC(=O)[C@H](Cc2c[nH]cn2)NC1=O` (stereo partly shown) [lutetium-177 labelled], the tissue uptake was 0.03 ± 0.02 %ID/g (C57 mice, tumour-bearing, brain; 2 h).
For `Cc1cc(C)n(CCN(CCN)CCCCCCNC(=O)[C@@H](N)Cc2c[nH]cn2)n1.[99Tc+].[C-]#[O+].[C-]#[O+].[C-]#[O+]`, the tissue uptake was 1.12 ± 0.18 %IA/g (BALB/c nude mice, MCF7 xenograft, spleen; intravenous, 15 min).
`O=C(NCC1OC2CCC=CCCC2O1)c1ccc(COCCOCCOCC[18F])cc1` (stereo not shown) has a tissue uptake of 4.5 ± 0.4 %ID/g (healthy female BALB/c nude mice, bladder; intravenous, 7.4 MBq per mouse, 15 min).
`CCCC[C@H](NC(=O)CNC(=O)CNC(=O)[C@H](CCCCNC(=O)C(C)c1ccc(CC(C)C)cc1)NC(=O)CN1CCN(CC(=O)O)CCN(CC(=O)O)CCN(CC(=O)O)CC1)C(=O)N[C@H]1CC(=O)NCCCC[C@@H](C(N)=O)NC(=O)[C@H](Cc2c[nH]c3ccccc23)NC(=O)[C@H](CCCNC(=N)N)NC(=O)[C@@H](Cc2ccccc2)NC(=O)[C@H](Cc2c[nH]cn2)NC1=O` (stereo partly shown) [lutetium-177 labelled] gave a tissue uptake of 2.64 ± 2.04 %ID/g (C57 mice, tumour-bearing, stomach; 2 h).
For `N#C[C@@H]1CCCN1C(=O)CNC(=O)c1ccnc2ccc(OCCCN3CCN(C(=O)CCc4ccc5c(c4)CN4CCN(Cc6cc(CCC(=O)O)ccc6O)CC(=O)[O][Al-]([18F])([O]C(=O)C4)[O]5)CC3)cc12` (stereo partly shown), the tissue uptake was 0.33 ± 0.07 %ID/g (BALB/c nude mice, U-87 MG xenograft, muscle; 1 h, blocking, added: DOTA-FAPI-04 40 nmol/mouse co-injected).
`CCCC[C@H](NC(=O)COCCOCCNC(=O)CN1CCN(CC(=O)O)CCN(CC(=O)O)CC1)C(=O)N[C@H]1CC(=O)NCCCC[C@@H](C(N)=O)NC(=O)[C@H](Cc2c[nH]c3ccccc23)NC(=O)[C@H](CCCNC(=N)N)NC(=O)[C@@H](Cc2ccccc2)NC(=O)[C@H](Cc2c[nH]cn2)NC1=O` [fluorine-18 labelled] has a tissue uptake of 0.28 ± 0.05 %ID/g (C57 mice B16-F10 melanoma, pancreas; intravenous, 0.37 MBq, 0.5 h).
`O=C(O)CCCOc1ccc([18F])cc1-c1cc(-c2ccccc2C(F)(F)F)n(-c2ccccc2)n1` has a tissue uptake of 0.54 ± 0.03 %ID/g (mice, large intestine; intravenous, 5 min).
For `CCCC[C@H](NC(=O)CCCCCCCNC(=O)CN1CCN(CC(=O)O)CCN(CC(=O)O)CC1)C(=O)N[C@H]1CC(=O)NCCCC[C@@H](C(N)=O)NC(=O)[C@H](Cc2c[nH]c3ccccc23)NC(=O)[C@H](CCCNC(=N)N)NC(=O)[C@@H](Cc2ccccc2)NC(=O)[C@H](Cc2c[nH]cn2)NC1=O` [fluorine-18 labelled], the tissue uptake was 0.11 ± 0.03 %ID/g (C57 mice, B16/F10 melanoma, pancreas; intravenous, 1 h, added: NDP-MSH 10 µg).
`COc1ccc(Nc2nc(Nc3ccc(OCCOCCOCC[18F])cc3)ncc2Br)cc1` has a tissue uptake of 4.09 ± 0.63 %ID/g (ICR mice, S180 tumour-bearing, lung; intravenous, 370 kBq, 60 min).
With `COc1ccc2c(c1)C(C)(C)C(/C=C/C1=C(Oc3ccc(C(=O)NCCCCOc4cc(CN(Cc5ccccn5)Cc5ccccn5)cc(CN(Cc5ccccn5)Cc5ccccn5)c4)cc3)C(=C/C=C3/N(CCCCS(=O)(=O)[O-])c4ccc(OC)cc4C3(C)C)CCC1)=[N+]2CCCCS(=O)(=O)[O-].O=[N+]([O-])[O-].O=[N+]([O-])[O-].[99Tc+].[C-]#[O+].[C-]#[O+].[C-]#[O+].[Zn+2]` the tissue uptake was 0.32 %ID/g and 0.37 %ID/g and 0.29 %ID/g (BALB/c mice, healthy, muscle; 12 h post-injection).
`N#C[C@@H]1CCCN1C(=O)CNC(=O)c1ccnc2ccc(OCCCN3CCN(C(=O)CCc4ccc5c(c4)CN4CCN6CC(=O)[O][68Ga-]([O]C(=O)C4)([O]5)[O]c4ccc(CCC(=O)N5CCN(CCCOc7ccc8nccc(C(=O)NCC(=O)N9CCC[C@H]9C#N)c8c7)CC5)cc4C6)CC3)cc12` has a tissue uptake of 0.81 ± 0.28 %ID/g (BALB/c nude mice, U-87 MG xenograft, spleen; 1 h, blocking, added: DOTA-FAPI-04 40 nmol/mouse co-injected).
The tissue uptake of `COc1ccc(Nc2nc(Nc3ccc(OCCOCC[18F])cc3)ncc2Br)cc1` is reported as 1.93 ± 0.04 %ID/g (ICR mice, S180 tumour-bearing, spleen; intravenous, 370 kBq, 60 min).

Some of these lines once more:
For `CCCC[C@H](NC(=O)CNC(=O)CNC(=O)[C@H](CCCCNC(=O)[C@H](CCN)NC(=O)C(C)c1ccc(CC(C)C)cc1)NC(=O)CN1CCN(CC(=O)O)CCN(CC(=O)O)CCN(CC(=O)O)CC1)C(=O)N[C@H]1CC(=O)NCCCC[C@@H](C(N)=O)NC(=O)[C@H](Cc2c[nH]c3ccccc23)NC(=O)[C@H](CCCNC(=N)N)NC(=O)[C@@H](Cc2ccccc2)NC(=O)[C@H](Cc2c[nH]cn2)NC1=O` (stereo partly shown) [lutetium-177 labelled], the tissue uptake was 0.03 ± 0.02 %ID/g (C57 mice, tumour-bearing, brain; 2 h).
For `Cc1cc(C)n(CCN(CCN)CCCCCCNC(=O)[C@@H](N)Cc2c[nH]cn2)n1.[99Tc+].[C-]#[O+].[C-]#[O+].[C-]#[O+]`, the tissue uptake was 1.12 ± 0.18 %IA/g (BALB/c nude mice, MCF7 xenograft, spleen; intravenous, 15 min).
